{"data": "Experimental data from different studies", "cell line": "HeLa", "note": "Compare with care: the assays were run in different laboratories. Numbers after ± are the reported error."}
{"SMILES": "COc1ccccc1CNC[C@](O)(COCc1ccccc1)[C@@H]1CC[C@@H](C)C[C@H]1OCc1ccccc1", "test": "cell growth or viability, MTT", "setting": "72 h", "IC50 [µM]": 2.05}
{"SMILES": "Cc1c(COc2cc(OCc3cccc(C#N)c3)c(CN3CCCC[C@H]3C(=O)O)cc2Cl)cccc1-c1cccc(OCCCCCC(=O)NO)c1", "test": "cell growth or viability, CCK-8", "setting": "48 h", "IC50 [µM]": 17}
{"SMILES": "O=C(NCCOCCOCCOCCNC(=O)c1cc2ccccc2c2ccccc12)c1cc(C(=O)N2CCNCCNCCNCC2)c(O)c(C(=O)N2CCNCCNCCNCC2)c1", "test": "cell growth or viability, MTT", "setting": "24 h", "IC50 [µM]": "> 1000"}
{"SMILES": "C=CCc1c(O)cc2c(c1O)C(=O)CC(c1ccc(O)cc1)O2 (stereo not drawn)", "test": "cell growth or viability, MTT", "setting": "48 h", "IC50 [µM]": "> 100"}
{"SMILES": "Cc1ccc2c(Cl)cc(Cl)c([O-])c2n1.Cc1ccc2c(Cl)cc(Cl)c([O-])c2n1.Cc1ccnc(-c2cc(C)ccn2)c1.[Co+2]", "test": "cell growth or viability, MTT", "setting": "48 h", "IC50 [µM]": 4.11}
{"SMILES": "CCN(CC)CCOC(=O)c1ccc(NC2OC(CO)C(O)C(O)C2O)cc1 (stereo not drawn)", "test": "cell growth or viability", "IC50 [µM]": "> 10"}
{"SMILES": "C[C@@H]1CC[C@@H]([C@@](O)(CNCc2cccc(F)c2)COCc2ccccc2)[C@H](OCc2ccccc2)C1", "test": "cell growth or viability, MTT", "setting": "72 h", "IC50 [µM]": 2.32}
{"SMILES": "CCCC[N+]1=c2cc3c4cc2[O][Mn-2]1(=[C]=O)(=[C]=O)(=[C]=O)[n+]1ccc(cc1)C(=O)OCCOCCOC(=O)c1cc[n+](cc1)[Mn-2](=[C]=O)(=[C]=O)(=[C]=O)([O]3)[N+]=4CCCC", "test": "cell growth, MTT", "setting": "48 h, LED photolysed 1 h", "IC50 [µM]": "1.74 ± 0.15"}
{"SMILES": "Cc1ccc2c(Cl)cc(Cl)c([O-])c2n1.Cc1ccc2c(Cl)cc(Cl)c([O-])c2n1.[Co+2].c1ccc(-c2ccnc3c2ccc2c(-c4ccccc4)ccnc23)cc1", "test": "cell growth or viability, MTT", "setting": "48 h", "IC50 [µM]": 2.58}
{"SMILES": "CCOc1cncc(-c2ccc(NC(=O)C3(c4ccnc(NS(=O)(=O)C5CC5)n4)CCOCC3)nc2)n1", "test": "cell growth or viability, ATP luminescence", "setting": "72 h", "IC50 [µM]": 10}
{"SMILES": "COc1cccc(CNC[C@@](O)(COCc2ccccc2)[C@@H]2CC[C@@H](C)C[C@H]2OCc2ccccc2)c1", "test": "cell growth or viability, MTT", "setting": "72 h", "IC50 [µM]": 4.63}
{"SMILES": "CC(C)CN1C(=O)CS/C1=N\\N=C\\c1cccc2cc3ccccc3nc12", "test": "cell growth or viability, MTT", "setting": "48 h", "IC50 [µM]": 30.7}
{"SMILES": "CCC(=CCc1c(O)cc2c(c1O)C(=O)CC(c1cccc(O)c1)O2)CC (stereo not drawn)", "test": "cell growth or viability, MTT", "setting": "48 h", "IC50 [µM]": 29.2}
{"SMILES": "CN(C)CCOc1cc(NC(=O)c2cccc(C(=O)Nc3cc(OCCN(C)C)c4ccccc4n3)n2)nc2ccccc12", "test": "cell growth or viability, ATP luminescence", "setting": "72 h", "IC50 [µM]": 2.2}
{"SMILES": "CCOC(=O)/C=C1\\S/C(=N\\N=C\\c2cccc3cc4ccccc4nc23)N(CC(C)C)C1=O", "test": "cell growth or viability, MTT", "setting": "48 h", "IC50 [µM]": 38.4}
{"SMILES": "Nc1nc(=O)n(C2CC(O)C(CO)O2)cc1F (stereo not drawn)", "test": "cell growth or viability", "IC50 [µM]": "> 10"}
{"SMILES": "c1ccc2nc3c4cccnc4c4ncccc4c3nc2c1", "test": "cell growth or viability, MTT", "setting": "48 h", "IC50 [µM]": "> 50"}
{"SMILES": "Cc1sc2c(c1C)C(c1ccc(Cl)cc1)=N[C@@H](CC(=O)NCCN(C)CCCCNC(=O)CCCCOc1cccc3c1C(=O)N([C@H]1CCC(=O)NC1=O)C3=O)c1nnc(C)n1-2", "test": "cell growth or viability, CCK-8", "setting": "72 h", "IC50 [µM]": "> 10"}
{"note": "Excerpt of the above:"}
{"SMILES": "CCOC(=O)/C=C1\\S/C(=N\\N=C\\c2cccc3cc4ccccc4nc23)N(CC(C)C)C1=O", "test": "cell growth or viability, MTT", "setting": "48 h", "IC50 [µM]": 38.4}
{"SMILES": "COc1ccccc1CNC[C@](O)(COCc1ccccc1)[C@@H]1CC[C@@H](C)C[C@H]1OCc1ccccc1", "test": "cell growth or viability, MTT", "setting": "72 h", "IC50 [µM]": 2.05}
